Results pooled from the literature.
Each numbered part is a random draw from the data of one study; scales do not carry over between parts. Positions count from the first letter of the parent shown.

Study 1
Target: RNA binding protein fox-1 homolog 2, RRM domain, GST-SBP tag (RBFOX2, Homo sapiens, UniProt O43251-10, residues 100-194)
Method: RNA Bind-n-Seq
Molecule type: RNA
Sample: in vitro
Concentration: 365 nM
Setting: natural RNA segment, single round, ends assumed
Relative to: no-protein control
Direction: higher = stronger binding
Construct (chain): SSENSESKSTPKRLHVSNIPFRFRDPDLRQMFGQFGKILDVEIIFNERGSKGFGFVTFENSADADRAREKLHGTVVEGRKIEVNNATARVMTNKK
For `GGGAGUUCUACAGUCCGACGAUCUCUAGUUAAAUAGCACAGUUUGGAAACUUGUCUGAGACUGACUUUAUCAAUAAUCUAACCGACAAAGAUCAUAUCCAUGUGUAUGUGGUUAGACAUUUUUAUUUCAUUGAUGGAAUUCUCGGGUGCCAA`, “RBNS enrichment (R)” read 0.504.
For `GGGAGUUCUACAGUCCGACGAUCUCCUCUUAGACAAUAUUCAUUAAAUCUGAGGACACAGUUUGACAGUAGUUCAGAUUCUUGCAUGAGCAAUUGACAGCAUCAGAGCACACAAUAUCAUAAGUUACAUAAAUUGGAAUUCUCGGGUGCCAA`, “RBNS enrichment (R)” read 6.33.
`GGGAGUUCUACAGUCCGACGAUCACCUCAGAGAUUUUUCUUCAGGAACUUCCACAAACUUUGAAUCCUUGUAUCUUUAUUUGGUAUUCAUACUACUAGUAGCAAAAUACAGGUUUUUUGUUUUGUUUUGUUUUUGGAAUUCUCGGGUGCCAA`: “RBNS enrichment (R)” 0.545.
`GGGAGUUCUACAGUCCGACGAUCGACUGAAUAGUUGGGUUUUAAAAGUGCAUGCUAUAAACAGACGAGCAUCCUAGAGCUCACUGAGCACUGCUGAGCUUUGACACGCCAGCCACACACAGCUUGCUGCUGUCUGGAAUUCUCGGGUGCCAA`: “RBNS enrichment (R)” 2.4.
`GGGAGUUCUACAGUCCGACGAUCGUUAGUUCCUCCCUCUUCCCGAUGUUCAUCUUCUAAGUAAGGGACAGCAUGCUACAGGACAGACCUGCUCUGGAAGCCUGUCAUAGUAAGGCUGGCGUGGCACGUUUGGGUGGAAUUCUCGGGUGCCAA`: “RBNS enrichment (R)” 0.853.
`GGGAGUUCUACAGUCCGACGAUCUCCUGCACGUAGCUGAGUGAGCUUAAGCCUUUAGUUUGGGGUGUGAAUAGGGAUCUGUGGUAGCCAGUGUUCCUAUGUUCUGCUAGUACCUGGGUCACCAGCCAUAGGGUUGGAAUUCUCGGGUGCCAA` — result for “RBNS enrichment (R)”: 2.13.
Under “RBNS enrichment (R)”, `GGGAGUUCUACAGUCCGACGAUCUUGGGGCUGUGCUUAAGAAUUUAAGCUCUGUUUUAAAGCCGAAGAAGAAAACAUUUGAAUUUACCUUCAUAUGCCACUAAGAACAAAAGCUCUGAAGUUCUUCCUGCUGGUGGAAUUCUCGGGUGCCAA` is recorded as 0.282.
`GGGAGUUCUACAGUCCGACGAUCGGAGGAAGGAAGCCACUGUUAACUGUGUAGUGUUACAGCAUAUUGCACAAAAGGUUUUGGUUUUGGUCUGGUGUAGCUUUGGCUGUCCUGAAAUGAAACACUCACUAUAUUGGAAUUCUCGGGUGCCAA`: “RBNS enrichment (R)” 0.453.
`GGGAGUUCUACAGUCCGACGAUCCCUUGCAGAGCUCAUGGUGACCAUUGGUUAAAGCCCAGAAGUUCUGUGUAAGCAUUGAACACUGUCUUAGGAAAGGCCAUGAGGCCAUAUUUCUGUCAACCCUGGACCAAUGGAAUUCUCGGGUGCCAA` — result for “RBNS enrichment (R)”: 0.252.
For `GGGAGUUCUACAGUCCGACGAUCAGGUGCAGAGAUGAAGUGAGCUUAGAGAUGUUGCAAAUGCUCUUUAUCCCUUCAGCUCUCUGAUCUGCUCUUUCUUCAUGAUACUUAGUCUGCAGGGCAUAUUAAGAUCAUGGAAUUCUCGGGUGCCAA`, “RBNS enrichment (R)” read 0.423.
`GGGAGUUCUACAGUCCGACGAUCAAUGAGCUAACCUCAGAGAGAAGCCCUGGAGUCUAAGAUUGUUGUAAAAAUUAAUUUAUUUGUGUUAUCUUGUAUUGACAAAUAAAAAUCUUUACUACUUUCUCAAGCCCUGGAAUUCUCGGGUGCCAA`: “RBNS enrichment (R)” 0.27.
For `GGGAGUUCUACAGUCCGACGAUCCAUUUAAAACCCAGCUGUUUAGCAAGGAGUGUUGGCUCACACCUACAAUCCCAGCAUUUGGGAAGCUGAGGCAAGCAGAUUACCACAAGUUUGAAACCAACCUUGGCUGCUGGAAUUCUCGGGUGCCAA`, “RBNS enrichment (R)” read 0.301.

Study 2
Target: CCNB1, cyclin fold, Cln2 fusion (human)
Method: yeast growth competition, sequencing
Sample: yeast
Setting: weak parent motif
Relative to: not given
Direction: higher = stronger binding
Starting sequence: SLBP docking peptide (human); ARYKRKLLINDFG
`SRYKRKLLINDFG [A1S]`: “normalised enrichment score” 0.627.
`ARYKRKLLINTFG [D11T]` — result for “normalised enrichment score”: 0.909.
`ARYKRKLLKNDFG [I9K]` — result for “normalised enrichment score”: 1.51.
`ARYARKLLINDFG [K4A]` — result for “normalised enrichment score”: 0.303.
`ARQKRKLLINDFG [Y3Q]`: “normalised enrichment score” 0.464.
`ARYKRKLLINRFG [D11R]`: “normalised enrichment score” 0.388.
Under “normalised enrichment score”, `ARYKRKLKINDFG [L8K]` is recorded as -0.135.
`ARLKRKLLINDFG [Y3L]`: “normalised enrichment score” 1.37.
`AEYKRKLLINDFG [R2E]` — result for “normalised enrichment score”: 1.26.
For `NRYKRKLLINDFG [A1N]`, “normalised enrichment score” read 1.1.
`ARYYRKLLINDFG [K4Y]`: “normalised enrichment score” 0.719.
For `ARYKRKLPINDFG [L8P]`, “normalised enrichment score” read 0.711.
Under “normalised enrichment score”, `ARYKRKLLIIDFG [N10I]` is recorded as 0.0952.
Under “normalised enrichment score”, `ARYKRKLLYNDFG [I9Y]` is recorded as 0.572.
Under “normalised enrichment score”, `ARYKRKLLINLFG [D11L]` is recorded as 0.854.
For `ARYKRKLLINSFG [D11S]`, “normalised enrichment score” read 0.559.

Study 3
Target: Ras GTPase-activating protein-binding protein 1, full length (G3BP1, Homo sapiens, UniProt Q13283)
Chain of UniProt Q13283 (whole entry, looked up): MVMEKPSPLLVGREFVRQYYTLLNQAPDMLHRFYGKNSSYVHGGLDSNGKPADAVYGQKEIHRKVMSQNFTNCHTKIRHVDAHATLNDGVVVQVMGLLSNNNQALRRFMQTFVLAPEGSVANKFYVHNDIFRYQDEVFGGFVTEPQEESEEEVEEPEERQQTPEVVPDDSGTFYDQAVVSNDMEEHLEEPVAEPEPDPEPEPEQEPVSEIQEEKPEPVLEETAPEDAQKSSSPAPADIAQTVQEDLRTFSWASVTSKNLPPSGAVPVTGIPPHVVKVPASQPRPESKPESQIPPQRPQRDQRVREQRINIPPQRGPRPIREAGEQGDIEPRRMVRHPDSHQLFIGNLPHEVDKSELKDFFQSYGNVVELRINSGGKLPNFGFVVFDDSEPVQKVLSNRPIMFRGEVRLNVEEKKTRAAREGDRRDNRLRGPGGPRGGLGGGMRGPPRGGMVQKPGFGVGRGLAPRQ
Method: RNA Bind-n-Seq
Molecule type: RNA
Sample: in vitro
Concentration: 200 nM
Setting: whole 134-nt RNA, ends assumed
With: 150 mM LiCl
Relative to: input library
Direction: higher = stronger binding
Library: 7-deaza-guanosine replaces G
`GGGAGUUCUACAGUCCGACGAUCGCAGGAAGUAAAAACAAAUGGAAACGCUUCGGAUAGUGGCAGGGGUGGGGGUUGCUAAGGAAAGGGUGGGAUGGGAGUGGGUAAAGAGUUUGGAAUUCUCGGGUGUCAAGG` has a log2 enrichment of 0.16.
With `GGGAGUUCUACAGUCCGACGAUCCUCAAGUCCUGUGCUACACAUCGUAUGUACCGAAUCGGGAAGGGAAGGAAGGGAAAGUAUUAUGUUACGCCGUUCGGAUCUGCACUUCCAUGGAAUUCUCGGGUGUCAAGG` the log2 enrichment was -0.219.
For `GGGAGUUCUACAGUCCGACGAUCUCAAGUCCUGUGCUACACAUCGUAUGUACCGAAUCGGGGUUGGGGUUGGUUGGGGAAAGUAUUAUGUUACGCCGUUCGGAUCUGCACUUCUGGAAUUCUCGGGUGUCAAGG`, the log2 enrichment was 0.0893.
For `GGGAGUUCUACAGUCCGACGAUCUAACUUUAGAGGAGGUUCUGAUGGAUAUGGCAGUGGACGUGGAUUUGGGGAUGGCUAUAAUGGGUAUGGAGGAGGACCUGGAGGUGGCAAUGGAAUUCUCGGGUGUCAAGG`, the log2 enrichment was -0.271.
The log2 enrichment of `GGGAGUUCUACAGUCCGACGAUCCUGUGCUACACAUCGUAUGUACCGAAUCGGGGAAAAAAAGGGGUUUGGGGUUUUUUUGGGGAAAGUAUUAUGUUACGCCGUUCGGAUCUGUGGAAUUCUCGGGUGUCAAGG` is reported as -0.234.
`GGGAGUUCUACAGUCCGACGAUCUACUCUUUGAUUUAUCAAAUGUGUUCAGUUGGAGAAUCGUCCUCAGGAAAGGCUUCAAGGAGCCUUGCACAGCAUAUUCCUGGCCCUGGUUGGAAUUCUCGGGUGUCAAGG` has a log2 enrichment of -1.5.
`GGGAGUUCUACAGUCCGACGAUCCACAGACAACACGCCCCCACACAGACACAGAGGGAAGGGGUUGGGAUGGGGACAGGGUGCACAGCAGGGCGGGGUAGGACCCCAGCCCCUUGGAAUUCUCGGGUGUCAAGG` has a log2 enrichment of -1.2.
For `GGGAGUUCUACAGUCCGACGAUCCUGUGCUACACAUCGUAUGUACCGAAUCGGGAAAAAAAGGGGAAAAAAAGGGAAAAAAAGGAAAGUAUUAUGUUACGCCGUUCGGAUCUGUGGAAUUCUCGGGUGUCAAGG`, the log2 enrichment was 0.0598.
`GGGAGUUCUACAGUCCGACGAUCGGGGUGAGCACAGACAGGAUCGCAGGGAGAGGCCGUAUUAAUUAGCCUGGCUCCCCAGGUUCUGGAACAGCUUUUUGUCCUGUACCCAGUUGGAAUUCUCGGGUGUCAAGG` gave a log2 enrichment of 0.751.
The log2 enrichment of `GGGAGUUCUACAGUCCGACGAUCUGUGCUACACAUCGUAUGUACCGAAUCGGGGUUUUUUUGGGUUUUUUUGGGUUUUUUUGGGGAAAGUAUUAUGUUACGCCGUUCGGAUCUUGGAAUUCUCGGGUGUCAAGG` is reported as 1.7.
`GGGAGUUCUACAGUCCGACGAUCCCUGUGCUACACAUCGUAUGUACCGAAUCAAACCCCCCCAAAUUUUUAAAUUUUUUUAAAAAAGUAUUAUGUUACGCCGUUCGGAUCUGCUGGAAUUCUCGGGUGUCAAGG` has a log2 enrichment of 1.56.

Study 4
Target: Interferon regulatory factor 5, full length, phosphomimetic (IRF5, Homo sapiens, UniProt Q13568-2, residues 1-514, S451D/S453D/S456D/S462D)
Method: protein-binding microarray
Molecule type: double-stranded DNA, one strand shown
Sample: in vitro
Concentration: 940 nM top
Setting: 60-bp whole probe
With: salmon DNA 0.4 mg/ml
Relative to: random background probes
Direction: higher = stronger binding
Shared flanks, not repeated: GCCTAGCAC … GTCTTGATTCGCTTGACGCTGCTG
Under “fitted relative affinity”, `TCACTTCTGGGCTGTTTAACTGTGCTA` is recorded as 0.0283 z-score.
For `GGTCTTTCCGATTAGTCCCCGTGCTAG`, “fitted relative affinity” read 0.966 z-score.
Under “fitted relative affinity”, `GTCTTTGCAAAAGCTCCACCGTGCTAG` is recorded as -0.371 z-score.
`GACGGACGGGGGACTGGGGACGTGCTA` — result for “fitted relative affinity”: 0.752 z-score.
`TTAGGTCTCCTTTTCCTTTCGTGCTAG` — result for “fitted relative affinity”: 0.836 z-score.
`CCTTTTTTGTTGTTTTTTGGGTGCTAG` — result for “fitted relative affinity”: 2.89 z-score.
`GACGGTTTCAGTTTCGGGACGTGCTAG` — result for “fitted relative affinity”: 8.33 z-score.
Under “fitted relative affinity”, `TTAGAACTGGGGTCTCGATTAGTGCTA` is recorded as 0.94 z-score.
`GACGGTTTCCTTTTCCTGAGGTGCTAG` — result for “fitted relative affinity”: 1.74 z-score.
`CTCGTTTACATTTTCCAAATGTGCTAG` — result for “fitted relative affinity”: 0.463 z-score.
`TTAGATATCAGACTGCATTAGTGCTAG`: “fitted relative affinity” -0.459 z-score.
`TTGGGTATCCTTATCCTTTAGTGCTAG` — result for “fitted relative affinity”: 0.301 z-score.
Under “fitted relative affinity”, `TTAGGTTTCATTTTCCTTTAGTGCTAG` is recorded as 6.75 z-score.
For `TTAGGTCTCGGTAGCGGTTAGTGCTAG`, “fitted relative affinity” read 4.35 z-score.
For `TTAGATTTCAGTTCCCATTAGTGCTAG`, “fitted relative affinity” read 1.32 z-score.
Under “fitted relative affinity”, `TCAGATAACTTTTTTTTACTGTGCTAG` is recorded as 0.355 z-score.
`TTAGGTTTCGACACTGTGTTAGTGCTA`: “fitted relative affinity” 8.75 z-score.

Other studies, line by line
For `PhoQ, residues 284 288 289 292 302 303 ASVMEA`, the fold induction was 2.17 (PhoP, residues 12 14 15 18 19 AQALL (Escherichia coli, UniProt P23836); Sort-seq, item: YFP reporter; E. coli; PhoQ-PhoP variant library, with: 10 µM Mg2+; relative to: high Mg2+ state, higher = stronger signaling).
